Published values pooled from the literature.
Every numbered part comes from another study and shows a few of its results, in no order. Changes are numbered by the printed parent chain.

Series 1
Target: CREBZF, bZIP domain (human)
Method: DHFR protein complementation
Matrix: yeast
Setting: single substitutions, most at no-binding floor
Baseline: wild-type JUN-FOS pair
Reading: higher = stronger binding
Starting sequence: JUN, bZIP domain (human); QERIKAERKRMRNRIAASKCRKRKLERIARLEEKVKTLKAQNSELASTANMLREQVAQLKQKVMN; partner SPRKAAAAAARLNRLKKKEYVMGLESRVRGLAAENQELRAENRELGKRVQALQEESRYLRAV
Change | binding fitness [natural log]
L38A | -1.57
V35H | -1.51
R53A | -1.52
T48M | -1.5
L31W | -1.49
L52Y | -1.45
T37Y | -1.48
N42K | -1.58
V35P | -1.51
E44H | -1.48
K36E | -1.42
E54G | -1.36
M51R | -1.42
K39G | -1.4
N42E | -1.51
Q41T | -1.4
K39W | -1.53
A57S | -1.46
M51L | -1.47

Series 2
Target: Sal-like protein 4, full length isoform B (SALL4, Homo sapiens, UniProt Q9UJQ4-2, residues 1-616)
Method: universal PBM
Form: double-stranded DNA, one strand shown
Matrix: in vitro
Concentration: not given
Setting: 8-mer, flanks averaged, mean of replicates
Reading: higher = stronger binding
Residues (chain): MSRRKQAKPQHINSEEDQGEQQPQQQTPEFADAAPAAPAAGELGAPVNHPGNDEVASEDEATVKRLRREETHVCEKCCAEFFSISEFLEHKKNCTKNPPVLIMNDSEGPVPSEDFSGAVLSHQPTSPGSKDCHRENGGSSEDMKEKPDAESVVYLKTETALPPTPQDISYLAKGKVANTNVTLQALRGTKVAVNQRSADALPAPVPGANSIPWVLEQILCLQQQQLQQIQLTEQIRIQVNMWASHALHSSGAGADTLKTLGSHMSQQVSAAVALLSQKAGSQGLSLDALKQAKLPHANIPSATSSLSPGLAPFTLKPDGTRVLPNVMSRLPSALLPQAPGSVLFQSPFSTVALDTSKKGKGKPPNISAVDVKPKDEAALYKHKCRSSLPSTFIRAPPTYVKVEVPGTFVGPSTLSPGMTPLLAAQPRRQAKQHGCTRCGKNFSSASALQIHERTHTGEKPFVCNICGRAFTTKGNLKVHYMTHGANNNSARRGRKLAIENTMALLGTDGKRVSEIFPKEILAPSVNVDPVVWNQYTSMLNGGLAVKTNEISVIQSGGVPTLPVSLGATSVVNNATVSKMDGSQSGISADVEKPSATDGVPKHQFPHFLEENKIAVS
Strand | E-score
AATCAAAG | 0.0368
ATAAATAC | 0.349
GCGGGCCA | -0.261
GCCGAGAC | -0.272
AACTAATC | 0.149
AGGAACTC | -0.0569
ACTGTTAA | 0.18
ACAATGCG | 0.0602
AGTCGGAA | -0.213
CGGAGACA | -0.166
ACACGTTC | 0.11
GCGATTTA | 0.106
TCAGCAGA | -0.0705
CGTGCAAG | -0.181
GCGGCTTA | -0.119
ACTCCAGA | -0.0197
ACAGTCCA | -0.0834
GAGCTCGA | -0.151
GCGGAACC | -0.225
CCACCGTC | -0.311
GCGCACCC | -0.263
CCCGGAGA | -0.265
CAACATGG | -0.0285
CCACATCC | -0.135
ACGCATGC | -0.0564

Series 3
Target: RING finger protein unkempt homolog, zinc fingers 1-6, GST-SBP tag (UNK, Homo sapiens, UniProt Q9C0B0, residues 30-357)
Method: RNA Bind-n-Seq
Form: RNA
Matrix: in vitro
Concentration: not given
Setting: RNA with constant flanks, ends assumed
Baseline: input RNA pool
Reading: higher = stronger binding
Shared flanks, not repeated: GGGAGUUCUACAGUCCGACGAUC … CAACAGAGGAUUGAGCAUCA
Residues (chain): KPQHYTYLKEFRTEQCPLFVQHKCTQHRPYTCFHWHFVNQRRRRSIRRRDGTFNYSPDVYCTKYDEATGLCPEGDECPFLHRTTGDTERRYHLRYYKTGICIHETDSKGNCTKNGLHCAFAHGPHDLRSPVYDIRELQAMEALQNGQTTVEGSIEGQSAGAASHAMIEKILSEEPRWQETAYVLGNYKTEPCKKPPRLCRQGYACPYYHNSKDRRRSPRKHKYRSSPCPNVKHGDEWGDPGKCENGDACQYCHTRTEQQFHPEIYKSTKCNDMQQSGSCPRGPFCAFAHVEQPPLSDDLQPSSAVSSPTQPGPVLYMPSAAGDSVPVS
Strand | bound/input enrichment [ratio]
AUUUGAUACUAAUCUGUCUGUUUGUUUGUGGAUUUUGAGAAAUAUUUGCUUAACUACCCAAACCGGAUUUCUGGUAUUAAAUGGCCUUUGGGUCCUAAAAGCUUUUUUUAACUUCUUGCU | 0.309
AUCAAGCAGCUGUUGCAAUCUGCCCACAAAGAAUCCAGCUUUGACAUUAUUUUGUCAGGUUCCGUCCCAGGAAGCACCACUCUGCACAGUGCUGAGAUUUUGGCUGAAAUCGCCCGGAUC | 0.129
UUAGAAUGUUAUUUAGACCAAGUUUAGCUUUUAGAGUCCAGGUCUGGUUAAUUGCCAGGGCCGCAAAGAAUCGCAUGCACCAAUGUAAACAGGAGUCAGAAUGCAUUAUUAGUCAAAGAU | 1.79
GUCUGUGGCCGCAGUGACACCAUCGACACCGUCUCUGUGCCGUAUGUCUUCCGGUACUUUGCCGCUGAGCUGGCAGCCAUGAACAUCAAAGUGAAACUGGAUGUCAUCUGACUUGAUCCC | 0.0761
CUUAAUUAGAGGGCAAUAUAUGUUUCAUAAAGAAGAGUCUUUAUAAUUUUGUUUGUCAGACCGUAUUUUGGAAUUUGUAUAAUAAGGAUGUUUAGAAGCCAUAUAAGUGGCUUUUUUUAA | 0.867
GACGUUGAGAGGAUUGUUUAUUUGAUUUUUAUCCUCAUCCCAGCAGGCCUGGCUUUGUGGUCCGUUGGGUACAUCACAAAAAUAAGUUAAAAAGAAAUAUUUGUGCCUUGGGGAGAAGAA | 0.268
AUCCCCAACGUGCUGCGCCGCACUCGCGAGCGCAUCCUGCGCGUGGCGCCGCCGUUUGCCGUGGUCUACCUGAUCUACACAUGGGGCAACCAGGAGUUUGAGCAGUCGAAAAGGAAGAAU | 0.111
GUGAAGACAUCACUUCCCCUCGGAGUCCCCUGAGUAUUUACAAGCCUCAGCAGGGCAGCACCGCUAUGUUCUGUUUGCCGUUUGUUGGUUUGCUUCUGUAUAGGUCUCUUUCCUUCCUCC | 0.324
AACAAAGAUUAUCACAAGGAUGUUCGUAAUAACUUUUUGCCACCAAUUAUUGCACGUUUCAUCCGAGUGAACCCUGUCCAGUGGCAACAGAAAAUUGCCAUGAAAGUGGAACUGCUCGGA | 0.0874
AUGUGCAAGGAGAUUAUUCCAACUAGUGAAUUUAUUAACAGUAAAUUAACAGCAAAAGCAAACCGGCAGCUUCAAGACCCUCUAGUAAUCAUGACAGGAAACAUCCCAACAUGGCUCACU | 1.35
CAUGUCUGCCAGGAUGAACACCAACUUUACAAUGAAUUUUUCACAAAACCAACAUCAAAAUCCGAUGAGCUUUUGGAGAAACUGUGUGUGUCAUUGUAUGAUGUCUUCAGGCCAUUGAUC | 0.125

Series 4
Target: RNA binding protein fox-1 homolog 2, RRM domain, GST-SBP tag (RBFOX2, Homo sapiens, UniProt O43251-10, residues 100-194)
Method: RNA Bind-n-Seq
Form: RNA
Matrix: in vitro
Concentration: 365 nM
Setting: natural RNA segment, single round, ends assumed
Baseline: no-protein control
Reading: higher = stronger binding
Shared flanks, not repeated: GGGAGUUCUACAGUCCGACGAUC … UGGAAUUCUCGGGUGCCAA
Residues (chain): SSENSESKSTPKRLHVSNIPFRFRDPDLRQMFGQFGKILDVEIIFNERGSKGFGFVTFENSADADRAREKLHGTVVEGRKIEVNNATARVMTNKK
Strand | RBNS enrichment (R)
AGAGGUAUGAGGCUGCAGAACCGGAGAGAUUUUCCUCUGUGCAGUGCUCUCUGGCUAAAGUCACGGUCAAACCUAAACACCGAGCCUCAUUAACCCAAGUGAACCAACCA | 0.237
CACACUGUCUCCUGCUGGCAUUCACCCCACUCAUGCUGGAAAGGAAGAUCCAGAUCGUACAAAAAUUAGAAAAAGAAAGAAUAAGAAGGGUCUGGUCCCAGUUCUGACUC | 0.902
GUCUGGAAUAAAGCCCCCUAGUUGCCUUUGGCCCCACCUUUGCAAAGUUCCAGAGGGCUGACCCUCUCUGCAAAACUCUCCCCUGUCCUCUAGACCCCACCCUGGGUGUA | 0.368
GGGUAACAGCCUUGGGGAGGGUGCAGAGCUCUGCAGAGCCAUGGGCCAGGUGGGGCUGCCUCAGUCCUGUCCCCUUGGGCACUGAGGAGAGGGGCCCAUUCACCUUUCUC | 0.335
UCAUGUCUCAGUUCCCAUCUAGCAAGGUGGCUUCAGGAGAGCAGAAGGAGGACCAGUCUGAAGAUAAGAAAAGACCCAGCCUGCCUUCCAGCCCGUCUCCUGGCCUCCCA | 0.371
CUAUAGUCCCAGCUACUCGGAAGGCUGAAGCAGGAGAAUGGUAUGAAUCCAGGAGGUGGAGCUUGCAGUGAGCCGAGACCGUGCCACUGCACUCCAGCCUGGGCAACACA | 0.49
UACUGAGAAGGUCCUCCUUCCUCUUGACUUUGUGGUCUGAAACCUGGUCUUACUGUCCAUGUGUGUUUGGGCCCGGAUGGUCAGGGUGGGGAGCAGGGACGGCCAUGGGC | 0.489
UCAGGAAGCCUAAUCCAGGUGGUAACCACAGAAGGAAGGACGGAACUCACCCCAGCAUAUUUUUAGGCCUCAUCUCAGUGCCUAUGAGGGGCCUGCCAGAAAAGUCACUA | 0.948
AACCUCAUUUAUUUAUCUUAAAAUUAACCAGCUUUCUCAGUUCCAUCCAAAGAAGAUACAGUAUGAAAGUAGAGGUGCACUCUCUAUAAUACAAUCUACUGUACAGUUAG | 0.889
UUCACCUUCAUCGCAGACUGAAAGUUUCAGUUUUUAUUUUUUUCAGAAAGCACGAAAAAUUAUUUAUAAUAGUCUGGAGAAAAAACACACUGUAAUAUUUCAAGUGUAUG | 45.5
CAGUUACGUGCCAGACCUGGACCGCAUUCUCCUGCCCUGUCCUGGAGCUGGCCCCUGGCUGCCUGGAGGACCCUGGGUAGGUCCUGAGGGUGGGAUGGAGAAGAGGGCAC | 0.38
UUCAUUAAAUGAUUUUUUCUGGUGGUUGUCAAGAAACAAAAGACCAAAAGAGCCUUUUUGUCUUUCUUUUUUAUUUUUUAAGUAUUGGAAUAAGUCUAAAGAAAAGAAAG | 0.466

Excerpt of the above (series 3):
Strand | bound/input enrichment [ratio]
AUUUGAUACUAAUCUGUCUGUUUGUUUGUGGAUUUUGAGAAAUAUUUGCUUAACUACCCAAACCGGAUUUCUGGUAUUAAAUGGCCUUUGGGUCCUAAAAGCUUUUUUUAACUUCUUGCU | 0.309
AUCAAGCAGCUGUUGCAAUCUGCCCACAAAGAAUCCAGCUUUGACAUUAUUUUGUCAGGUUCCGUCCCAGGAAGCACCACUCUGCACAGUGCUGAGAUUUUGGCUGAAAUCGCCCGGAUC | 0.129
UUAGAAUGUUAUUUAGACCAAGUUUAGCUUUUAGAGUCCAGGUCUGGUUAAUUGCCAGGGCCGCAAAGAAUCGCAUGCACCAAUGUAAACAGGAGUCAGAAUGCAUUAUUAGUCAAAGAU | 1.79
GUCUGUGGCCGCAGUGACACCAUCGACACCGUCUCUGUGCCGUAUGUCUUCCGGUACUUUGCCGCUGAGCUGGCAGCCAUGAACAUCAAAGUGAAACUGGAUGUCAUCUGACUUGAUCCC | 0.0761
